# Results of several laboratories.
# Compare with care: the assays were run in different laboratories. Several values in a cell are separate wells, animals, samples, runs or records. Numbers after ± are the reported error.
Molecule,target or system,test,system,conditions,scale,measurement,value
CCCC[C@H](NC(=O)COCCOCCNC(=O)CN1CCN(CC(=O)O)CCN(CC(=O)O)CC1)C(=O)N[C@H]1CC(=O)NCCCC[C@@H](C(N)=O)NC(=O)[C@H](Cc2c[nH]c3ccccc23)NC(=O)[C@H](CCCNC(=N)N)NC(=O)[C@@H](Cc2ccccc2)NC(=O)[C@H](Cc2c[nH]cn2)NC1=O [technetium-99m labelled],,,"C57 mouse, kidneys","intravenous, 0.037 MBq, 4 h",,tissue uptake,0.73 ± 0.14 %ID/g
CC(C)C[C@H](NC(=O)[C@@H](CCCCNC(=O)CCCCCCCCCCNC(=O)CN1CCN(CC(=O)O)CCN(CC(=O)O)CCN(CC(=O)O)CC1)NC(=O)[C@H](Cc1ccc(O)cc1)NC(=O)[C@H](CO)NC(=O)[C@H](Cc1c[nH]c2ccccc12)NC(=O)[C@H](Cc1cnc[nH]1)NC(=O)[C@@H]1CCC(=O)N1)C(=O)N[C@@H](CCCN=C(N)N)C(=O)N1CCC[C@H]1C(=O)NCC(N)=O [indium-111 labelled],,,"athymic nude mouse, female, whole blood","intravenous, 0.037 MBq, 0.5 h",,tissue uptake,5.81 ± 0.65 %ID/g
C[C@@H](O)[C@@H]1NC(=O)[C@H](CCCCN)NC(=O)[C@@H](Cc2c[nH]c3ccccc23)NC(=O)[C@H](Cc2ccc(O)cc2)NC(=O)[C@@H](NC(=O)[C@@H](Cc2ccccc2)NC(=O)CN2CCN(CC(=O)O)CCN(CC(=O)O)CCN(CC(=O)O)CC2)CSSC[C@@H](C(=O)N[C@H](CO)[C@@H](C)O)NC1=O [gallium-67 labelled],,gamma counting,"ICR mice, male, kidney","iv, 11 kBq/mouse, 1 h",,tissue uptake,8.15 ± 2.43 %ID/g
C=C1CC[C@H](OCCCNC(=O)CCOCCOCCOCCOCCOCCOCCOCCOCCOCCOCCOCCOCCOCCOCCOCCOCCOCCOCCOCCOCCOCCOCCOCCOCCOCCOCCOCCOCCOCCOCCOCCOCCOCCOCCOCCOCCNC(=O)CCN2C(=O)CC(SC[C@H](NC(=O)[C@H](Cc3ccccc3)NC(=O)[C@H](CC(N)=O)NC(=O)[C@H](Cc3c[nH]cn3)NC(=O)[C@@H](NC(=O)[C@H](CC(=O)O)NC(=O)[C@H](CCC(N)=O)NC(=O)[C@H](CC(C)C)NC(=O)[C@H](CCCCN)NC(=O)[C@H](CCCCN)NC(=O)[C@H](CCCNC(=N)N)NC(=O)[C@H](CC(C)C)NC(=O)[C@H](Cc3c[nH]c4ccccc34)NC(=O)[C@H](CCC(=O)O)NC(=O)[C@@H](NC(=O)[C@H](CCCNC(=N)N)NC(=O)[C@H](CCC(=O)O)NC(=O)[C@H](CCSC)NC(=O)[C@H](CO)NC(=O)[C@H](CC(N)=O)NC(=O)[C@H](CC(C)C)NC(=O)[C@H](Cc3c[nH]cn3)NC(=O)[C@H](CCCCN)NC(=O)CNC(=O)[C@H](CC(C)C)NC(=O)[C@H](CC(N)=O)NC(=O)[C@H](Cc3c[nH]cn3)NC(=O)[C@H](CCSC)NC(=O)[C@H](CC(C)C)NC(=O)[C@H](CCC(N)=O)NC(=O)[C@@H](NC(=O)[C@H](CCC(=O)O)NC(=O)[C@H](CO)NC(=O)[C@@H](NC(=O)[C@@H](N)CO)C(C)C)[C@@H](C)CC)C(C)C)C(C)C)C(=O)O)C2=O)C/C1=C/C=C1\CCC[C@]2(C)[C@@H]([C@H](C)CCCC(C)(C)O)CC[C@@H]12 (stereo partly shown),,,"male cynomolgus monkey, plasma","subcutaneous, 0.02 mg/kg, single dose",,half-life,24.3 h
CC(C)C[C@H](NC(=O)[C@H](Cc1ccc(O)cc1)NC(=O)[C@@H](CCCNC(=N)N)NC(=O)[C@@H](CO)NC(=O)[C@H](Cc1ccccc1)NC(=O)[C@H](CC1CCCCC1)NC(=O)[C@H](CC(=O)O)NC(=O)CN1CCN(CC(=O)O)CCN(CC(=O)O)CCN(CC(=O)O)CC1)C(=O)N[C@@H](Cc1c[nH]c2ccccc12)C(=O)N[C@@H](CO)C(=O)O [copper-64 labelled],,,"human, urinary bladder","concentration not given, 24 h",,activity concentration,231 Bq/mL and 316 Bq/mL and 34.5 Bq/mL and 198 Bq/mL and 55.5 Bq/mL and 45.1 Bq/mL
COC1CN([C@H]2CC[C@H]([C@@]3(C)Oc4c(Cl)cc(C(=O)NCc5c(SC)cc(C)[nH]c5=O)c(C)c4O3)CC2)C1,,"RNA-seq, refers to: NBEA","human, whole blood","dose not given, 24 h",relative to: pretreatment baseline,log2 fold change,1.61
nucleophosmin S112E,,"far-UV CD, CDSSTR","Tris buffer, NaCl","pH 7.5, room temperature",,beta-strand content,17%
Cc1ncsc1-c1ccc(C(C)NC(=O)C2CC(O)CN2C(=O)C(NC(=O)CCCCCCCCCCN2CCCC(Nc3ncc(Cl)c(Nc4ccccc4S(=O)(=O)C(C)C)n3)C2)C(C)(C)C)cc1 (stereo not shown),22Rv1,"RNA-seq, refers to: ZNF740 mRNA",,concentration not given,relative to: DMSO,log2 fold change,-1.74
CC(C)C[C@H](NC(=O)[C@@H](CCCCNC(=O)[C@@H](Cc1ccccc1)NC(=O)CCCCCNC(=O)CN1CCN(CC(=O)O)CCN(CC(=O)O)CCN(CC(=O)O)CC1)NC(=O)[C@H](Cc1ccc(O)cc1)NC(=O)[C@H](CO)NC(=O)[C@H](Cc1c[nH]c2ccccc12)NC(=O)[C@H](Cc1c[nH]cn1)NC(=O)[C@@H]1CCC(=O)N1)C(=O)N[C@@H](CCCNC(=N)N)C(=O)N1CCC[C@H]1C(=O)NCC(N)=O [indium-111 labelled],,,"athymic nude mouse, female, intestines","intravenous, 0.037 MBq, 2 h",,tissue uptake,6.01 ± 6.69 %ID
C[C@@H](O)[C@@H]1NC(=O)[C@H](CCCCN)NC(=O)[C@@H](Cc2c[nH]c3ccccc23)NC(=O)[C@H](Cc2ccc(O)cc2)NC(=O)[C@@H](NC(=O)[C@@H](Cc2ccccc2)NC(=O)CN2CCN(CC(=O)O)CCN(C(=O)CCNC(=O)c3ncn4c(=O)n(C)nnc34)CCN(CC(=O)O)CC2)CSSC[C@@H](C(=O)N[C@H](CO)[C@@H](C)O)NC1=O [gallium-68 labelled],,ex vivo gamma counting,"mouse, HCT116-WT/SSTR2 xenografts, blood","intravenous, 2 nmol, 1 h",,tissue uptake,0.35 ± 0.15 %ID/g

# Excerpt of the above:
Molecule,target or system,test,system,conditions,scale,measurement,value
COC1CN([C@H]2CC[C@H]([C@@]3(C)Oc4c(Cl)cc(C(=O)NCc5c(SC)cc(C)[nH]c5=O)c(C)c4O3)CC2)C1,,"RNA-seq, refers to: NBEA","human, whole blood","dose not given, 24 h",relative to: pretreatment baseline,log2 fold change,1.61
